Published values collected from several papers.
Compare with care: the assays were run in different laboratories. ± gives the spread as reported.

The AUC(0-t) of `CCCCCCCC(=O)OC[C@H](NC(=O)[C@H](CO)NC(=O)CN)C(=O)N[C@@H](Cc1ccccc1)C(=O)N[C@@H](CC(C)C)C(=O)N[C@@H](CO)C(=O)N1CCC[C@H]1C(=O)N[C@@H](CCC(=O)O)C(=O)N[C@@H](Cc1cnc[nH]1)C(=O)N[C@@H](CCC(N)=O)C(=O)N[C@@H](CCCNC(=N)N)C(=O)N[C@H](C(=O)N[C@@H](CCC(N)=O)C(=O)N[C@@H](CCC(N)=O)C(=O)N[C@@H](CCCNC(=N)N)C(=O)N[C@@H](CCCCN)C(=O)N[C@@H](CCC(=O)O)C(=O)N[C@@H](CO)C(=O)N[C@@H](CCCCN)C(=O)N[C@@H](CCCCN)C(=O)N1CCC[C@H]1C(=O)N1CCC[C@H]1C(=O)N[C@@H](C)C(=O)N[C@@H](CCCCN)C(=O)N[C@@H](CC(C)C)C(=O)N[C@@H](CCC(N)=O)C(=O)N1CCC[C@H]1C(=O)N[C@@H](CCCNC(=N)N)C(=O)O)C(C)C` is reported as 2.87 ± 2.2 ng·h/mL (refers to: desacyl ghrelin; human, plasma; intravenous infusion, 1 µg/kg/h, 210 min).
For `CCCC[C@H]1C(=O)N(C)[C@@H](CCCC)C(=O)N[C@@H](CCCNC(=O)CN2CCN(CC(=O)O)CCN(CC(=O)O)CCN(CC(=O)O)CC2)C(=O)N[C@H](C(=O)NCC(N)=O)CSCC(=O)N[C@@H](Cc2ccc(O)cc2)C(=O)N(C)[C@@H](C)C(=O)N[C@@H](CC(N)=O)C(=O)N2CCC[C@H]2C(=O)N[C@@H](Cc2c[nH]cn2)C(=O)N[C@@H](CC(C)C)C(=O)N(C)CC(=O)N[C@@H](Cc2c[nH]c3ccccc23)C(=O)N[C@@H](CO)C(=O)N[C@@H](Cc2c[nH]c3ccccc23)C(=O)N1C` [gallium-68 labelled], the tissue-to-tissue ratio was 1.66 ± 0.36 (NOD/SCID mice, CHO-hPD-L1 xenograft, tumour over blood; iv, dose not given, 60 min; relative to: tumour over blood).
For `CC[C@H](C)C(=O)N1CCC(NC(=O)Nc2ccc(OC(F)(F)F)c(F)c2)CC1`, “subjects with trichomoniasis TEAE” read 0% (healthy volunteers; oral, 16 mg single dose).
Under “discontinued due to adverse events”, `CC(C)[C@H](NC(=O)CNC(=O)[C@H](CCC(N)=O)NC(=O)[C@H](C)N)C(=O)O` is recorded as 0% (human; intravenous infusion, 45 mg/kg/h, 2 h infusion).
`CCCCCCCCCCCCC(=O)O.O=C1CCCC2C3CCCN4CCCC(CN12)C34` (stereo not drawn) — result for “onset decomposition temperature”: 201 °C (thermogravimetry; first decomposition step, together with: heating 10 K/min under argon).
The tissue uptake of `CN[C@](C)(C[18F])C(=O)O` is reported as 2.7 ± 0.4 %ID/g (SCID mouse SK-OV-3 xenograft, heart; 15 min post injection).
With `COc1cc(-c2cncc(-c3ccc(N4CCNCC4)cc3)c2C)cc(O[11CH3])c1F` the peak SUV was 1.1 (dynamic PET; Sprague-Dawley rats male, whole brain; intravenous, 16 to 23 MBq).
With `COc1cc(NC(=O)C(=O)c2c(C)n(Cc3ccc(Cl)cc3)c3ccc(C)cc23)ccn1` the AUC(0-inf) was 1760 ng·h/mL (female cynomolgus monkey, plasma; intravenous, 1 mg/kg).
For `C[C@H](O)[C@@H](NC(=O)[C@H]1CCCN1C(=O)[C@@H](CCCCN)NC(=O)[C@@H](CO)NC(=O)[C@@H](Cc1ccc(O)cc1)NC(=O)[C@@H](CC(N)=O)NC(=O)CCOCCOCCOCCNC(=O)CN1CCN(CC(=O)O)CCN(CC(=O)O)CCN(CC(=O)O)CC1)C(=O)N[C@H](CC(=O)O)C(=O)N[C@H](CCCNC(=N)N)C(=O)N[C@H](CCC(N)=O)C(=O)N[C@H](Cc1ccc(O)cc1)C(=O)N[C@H](Cc1c[nH]cn1)C(=O)N[C@H](Cc1ccccc1)C(N)=O` [gallium-68 labelled], the clearance rate was 0.12 %ID/g/min (U87MG xenograft BALB/c nude mice, kidney; 5 to 120 min).
For `O=C(Oc1nsnc1N1CCOCC1)c1ccccc1`, the hydrolysis was ~50% (DMSO; concentration not given, 10 days).
The measured concentration of `C[C@@H]1CC[C@H]2[C@@H](C)CO[C@@H]3O[C@@]4(C)CC[C@@H]1[C@]32OO4` is reported as 816 ± 43.2 ng/mL (refers to: compound; rat, plasma; 800 ng/mL spiked, 24 h, autosampler at 4 °C).
With `COc1ccc2c3c(c4cc(OC)c(OC)cc4c2c1)C(=O)N1CCCC1C3` (stereo not drawn) the CC50 was 71.5 ± 2.15 µM (swine cells; 24 (unit not given)).
For `CC(C)C[C@@H](NC(=O)[C@@H](CCCCN)NC(=O)CNC(=O)CNC(=O)[C@@H]1CSSC[C@H](N)C(=O)NCC(=O)N[C@@H](CCCNC(=N)N)C(=O)N[C@@H](CCCNC(=N)N)C(=O)N[C@@H](C)C(=O)NCC(=O)NCC(=O)N[C@@H](CO)C(=O)N1)C(=O)N[C@H](C)C(=O)N[C@H](CCCCN)C(=O)N[C@H](CC(C)C)C(=O)N[C@H](C)C(=O)N[C@H](CCCCN)C(=O)N[C@H](CCCCN)C(=O)N[C@H](CC(C)C)C(=O)N[C@H](C)C(=O)N[C@H](CCCCN)C(=O)N[C@H](CC(C)C)C(=O)N[C@H](C)C(=O)N[C@H](CCCCN)C(=O)O`, the AUC was 26800 ng·h/mL (cynomolgus monkey, plasma; intravenous, 9 mg/kg, infusion).
For `Cc1cc(Nc2nc(C[C@@]3(C(=O)O)CCN(Cc4cccc(Cl)c4F)[C@H](C)C3)cc(C)c2F)n[nH]1`, the half-life was 3.56 h (beagle dog, plasma; intravenous, 1 mg/kg, single dose).
`COC(=O)C[C@](O)(CCCC(C)(C)OC(C)=O)C(=O)O[C@@H]1C(OC)=C[C@]23CCCN2CCc2cc4c(cc2[C@H]13)OCO4` has a concentration of 456 ng/mL (CD1 mouse, plasma; oral, 1 mg/kg, 2 h).
With `CCNc1cc2[o+]c3cc(NCC)c(C)cc3c(-c3ccccc3C(=O)OCCOCC[18F])c2cc1C` the tissue uptake was 0.29 ± 0.03 %ID/g (rat, bone; 30 min).
For `N=C(N)NCc1ccc(C(=O)NCCCC[C@H](NC(=O)N[C@@H](CCC(=O)O)C(=O)O)C(=O)O)cc1[131I]`, the tissue uptake was 0.74 ± 0.2 %ID/g (SCID mouse, PC-3 xenografts, heart; 1 h).
`[2H]C([2H])([2H])C([2H])([2H])C([2H])([2H])OC(C(=O)OC1CCNCC1)(c1ccccc1)c1ccccc1`: “adverse drug reactions” 0% (refers to: diarrhea; healthy Japanese male; oral, 10 mg, 16 days, multiple ascending dose).
With `CC(C)(C)C(=O)OCOP(=O)(OCOC(=O)C(C)(C)C)C1CCCN(O)C1=O` (stereo not drawn) the tolerated dose was ≤ 10 mg/kg/day (nude mice; intravenous, no hemolytic anemia).
With `C[C@H]1N=C(c2ccccc2F)c2cc(Br)ccc2-n2cnc(C(=O)OC3O[C@H](C(=O)O)[C@@H](O)[C@H](O)[C@H]3O)c21` (stereo partly drawn) the cumulative excretion was 0.1 ± 0.04% (LC-MS/MS; Swiss Webster mouse, female, urine; intravenous, 250 µg parent drug, 24 to 48 h).
The tracer uptake of `[11CH3]n1c(=O)n(CCCO)c(=O)c2c1nc(Oc1cccc(OC(F)(F)F)c1)n2Cc1ccc(Cl)cc1` is reported as 1.72 ± 0.38 %ID/g (ex vivo biodistribution; Sprague Dawley rat, pancreas; 5 min post injection).
